Measurements gathered from unrelated publications.

For `CC1=C(Cc2cn(CCOS(=O)(=O)c3ccc(C)cc3)nn2)C(=O)c2ccccc2C1=O`, the killing was 42.7% (Schistosoma mansoni; adult worms; 25 µM, 48 h).
`CC(=O)Oc1cc2c(s1)CCN(C(C(=O)C1CC1)c1ccccc1F)C2` (stereo not drawn) gave an inhibition of -9.1% (Nedd8-cullin1 interaction; neddylation, AlphaScreen; 100 µM).
`CCn1cc(-c2cc(Cn3ccnc3)cc3c2CCN([C@H](c2cc(OC)ccn2)C2CC2)C3=O)c(C(F)(F)F)n1` gave an EC50 of 19.1 µM (HEC151; cell growth; 120 h).
For `CC1=C(Cc2cn(Cc3ccccc3)nn2)C(=O)c2ccccc2C1=O`, the killing was 55.1% (Schistosoma mansoni; adult worms; 10 µM, 48 h).
`COc1cnc2cccc(N3CCc4c(cc(Cn5ccnc5C)cc4-c4cn(C)nc4C(F)(F)F)C3=O)c2c1` gave an EC50 of 3.16 µM (Hs 294T; cell growth, inhibitor; 120 h).
With `N/N=c1\[nH][nH]/c(=N\N)c2ccccc12.O=S(=O)(O)O` the inhibition was 104% (Nedd8-cullin1 interaction; neddylation, AlphaScreen; 100 µM).
The EC50 of `CCn1cc(-c2cc(Cn3ccoc3=N)cc3c2CCN([C@@H](C)c2cc(OC)ccn2)C3=O)c(C(F)(F)F)n1` is reported as 0.022 µM (BICR6; cell growth; 120 h).
Under “log2 fold change”, `Cn1cc(-c2ccc(-c3cncc(Cl)c3N3CCC4(CCNC4=O)CC3)cc2)cn1` is recorded as 3.16 (COLO 205; gene expression, microarray, refers to: NDRG1 mRNA; concentration not given, 6 h; reference: untreated cells).
The selectivity index of `CC1=C(Cn2cc(C(C)(C)O)nn2)C(=O)c2ccccc2C1=O` is reported as 6.9 (Schistosoma mansoni; NTS; reference: L6 CC50 over IC50).
`CC(COc1ccccc1)N(CCCl)Cc1ccccc1` (stereo not drawn) has an inhibition of -108% (Nedd8-cullin1 interaction; neddylation, AlphaScreen; 100 µM).
The killing of `CC1=C(Cc2cn(CCN3CCC(=O)CC3)nn2)C(=O)c2ccccc2C1=O` is reported as 47.4% (Schistosoma mansoni; adult worms; 25 µM, 48 h).
`CC[C@H](C)C(=O)O[C@H]1C[C@@H](C)C=C2C=C[C@H](C)[C@H](CC[C@@H]3C[C@@H](O)CC(=O)O3)[C@H]21` has an inhibition of 48.4% (Nedd8-cullin1 interaction; neddylation, AlphaScreen; 100 µM).
`CC1=C(Cn2cc([Si](C)(C)C)nn2)C(=O)c2ccccc2C1=O` gave a killing of 43.8% (Schistosoma mansoni; adult worms; 10 µM, 72 h).
With `CC1=NN(c2ccccc2)C(=O)C1` the inhibition was -7.6% (Nedd8-cullin1 interaction; neddylation, AlphaScreen; 100 µM).
With `O=C(O)CNC(=O)Cc1ccccc1` the sarcomere length was 1.72 µm (ventricular cardiomyocytes, C57BL/6 mouse; dose not given, 0.42 s).
